Measured values gathered from unrelated publications.
Each line is one published result; not all experiments were run side by side. pEC50, pIC50: −log10 of the molar value.

| Compound | tested on | test | test system | setting | how to read | quantity | result |
| --- | --- | --- | --- | --- | --- | --- | --- |
| N#Cc1ccn2c(-c3ccncc3)c(-c3ccc(F)cc3)nc2c1 | – | kinase binding, competitor, MIB/MS competition, measured: KIN2 | Candida albicans cell lysate | 1 µM | reference: DMSO | log2 fold change | -0.202 |
| Cn1cc(-c2ccc(-c3cncc(Cl)c3N3CCC4(CCNC4=O)CC3)cc2)cn1 | COLO 205 | gene expression, microarray, measured: ILF3 mRNA | – | concentration not given, 2 h | reference: untreated cells | log2 fold change | -2.81 |
| CC1=C(Cn2cc(CN(Cc3ccccc3)Cc3ccccc3)nn2)C(=O)c2ccccc2C1=O | Schistosoma mansoni | – | adult worms | 25 µM, 24 h | – | killing | 45.2% |
| C[C@H](Oc1ccc(Br)cc1-c1ccon1)C(=O)O | – | first response latency | human, tibialis anterior muscle | 400 mg, 15 Hz, single ascending dose | – | difference from placebo | -0.295% |
| CC1=C(Cc2cn(CCO)nn2)C(=O)c2ccccc2C1=O | Schistosoma mansoni | – | adult worms | 10 µM, 24 h | – | killing | 44.9% |
| Cc1nc(C)c(C)nc1C.O=P(O)(O)O | Nedd8-cullin1 interaction | neddylation, AlphaScreen | – | 100 µM | – | inhibition | 44% |
| Cc1ccc(Nc2cnnc3ccc(-c4ccc(N5CCN(C)CC5)cc4)cc23)cn1 | Schistosoma mansoni | – | adult worms | 10 µM, 1 h | direction not given | phenotypic severity score | 1 |
| CC1=C(Cn2cc(C(C)(C)O)nn2)C(=O)c2ccccc2C1=O | Schistosoma mansoni | – | adult worms | 25 µM, 24 h | – | killing | 43.9% |
| CCCCC(=O)N(Cc1ccc(-c2ccccc2-c2nnn[nH]2)cc1)[C@H](C(=O)O)C(C)C | Nedd8-cullin1 interaction | neddylation, AlphaScreen | – | 100 µM | – | inhibition | 83.4% |
| OC(CCN1CCCCC1)(c1ccccc1)C1CC2C=CC1C2 (stereo not shown) | – | resting-state EEG | healthy elderly humans | oral, 4 mg, eyes open, LS mean | – | power, EEG, Alpha, O2-Pz | 7.6 µV² |
| CN(CCO)CC(O)Cn1cnc2c1c(=O)n(C)c(=O)n2C.O=C(O)c1cccnc1 (stereo not shown) | Nedd8-cullin1 interaction | neddylation, AlphaScreen | – | 100 µM | – | inhibition | -3.3% |
| CC1=C(Cn2cc(CBr)nn2)C(=O)c2ccccc2C1=O | Schistosoma mansoni | – | adult worms | 25 µM, 72 h | – | killing | 50% |
| Cc1c(CN2CCN(C(=O)[C@H](C)O)CC2)sc2c(N3CCOCC3)nc(-c3cnc(N)nc3)nc12 | phospho-Akt | Akt phosphorylation, inhibitor | human patients with prostate tumour, plasma | PK-PD study | – | IC50 | 8.3 ng/mL |
| c1coc(-c2n[nH]cc2-c2ccnc3ccccc23)c1 | orf19.4144 Candida albicans | kinase binding, MIB/MS competition | Candida albicans lysate | 10 µM | reference: DMSO | log2 fold change | -0.18 |
| O=C(O)CNC(=O)Cc1ccccc1 | – | – | ventricular cardiomyocytes, C57BL/6 mouse | dose not given, 0.48 s | – | sarcomere length | 1.66 µm |
| CO[C@]12C[C@@H](COC(=O)c3cncc(Br)c3)CN(C)[C@@H]1Cc1cn(C)c3cccc2c13 | Nedd8-cullin1 interaction | neddylation, AlphaScreen | – | 100 µM | – | inhibition | -3.5% |
| Cc1n[nH]c2ccc(-c3cc(OC[C@@H](N)Cc4ccccc4)cnc3-c3ccoc3)cc12 | – | kinase binding, competitor, MIB/MS competition, measured: YPK1 | Candida albicans cell lysate | 1 µM | reference: DMSO | log2 fold change | -0.539 |
| CCn1cc(-c2cc(Cn3ccoc3=N)cc3c2CCN([C@@H](C)c2cc(OC)ccn2)C3=O)c(C(F)(F)F)n1 | JeKo-1 | cell growth, inhibitor | – | 120 h | – | pEC50 | 7.53 |
| CC1=C(Cc2cn(CCN3CCNCC3)nn2)C(=O)c2ccccc2C1=O | Schistosoma mansoni | – | adult worms | 25 µM, 48 h | – | killing | 48.5% |
| COc1ccc(Nc2cnnc3cc(-c4cnc(N5CCN(C)CC5)nc4)ccc23)cc1 | Schistosoma mansoni | – | adult worms | 10 µM, 24 h | direction not given | phenotypic severity score | 0 |

| Compound | tested on | test | test system | setting | how to read | quantity | result |
| --- | --- | --- | --- | --- | --- | --- | --- |
| CCn1cc(-c2cc(Cn3ccnc3)cc3c2CCN([C@H](c2cc(OC)ccn2)C2CC2)C3=O)c(C(F)(F)F)n1 | HCT-8 | cell growth, inhibitor | – | 120 h | – | pEC50 | < 4.52 |
| CN1CCN(c2ccc(-c3ccc4nncc(Nc5ncccn5)c4c3)cc2)CC1 | Schistosoma mansoni | – | adult worms | 10 µM, 24 h | direction not given | phenotypic severity score | 0 |
| CC1=C(Cn2cc(CO)nn2)C(=O)c2ccccc2C1=O | Schistosoma mansoni | – | adult worms | 25 µM, 72 h | – | killing | 57.9% |
| Cc1cnc(C(=O)O)c[n+]1[O-] | Nedd8-cullin1 interaction | neddylation, AlphaScreen | – | 100 µM | – | inhibition | 97.7% |
| COc1cnc2cccc(N3CCc4c(cc(Cn5ccnc5C)cc4-c4cn(C)nc4C(F)(F)F)C3=O)c2c1 | NCI-H661 | cell growth, inhibitor | – | 120 h | – | pEC50 | < 4.52 |
| NC(=O)c1cnc2[nH]ccc2c1N[C@@H]1[C@@H]2CC3C[C@H]1C[C@@](O)(C3)C2 | – | CD4+ central memory T cells, flow cytometry | Caucasian humans, peripheral blood | 200 mg single dose | reference: baseline | percent change | 0.08% |
| C[C@H](N[C@@H](CCc1ccccc1)C(=O)O)C(=O)N1CCC[C@H]1C(=O)O | Nedd8-cullin1 interaction | neddylation, AlphaScreen | – | 100 µM | – | inhibition | 14.6% |
| N#Cc1ccc(COC[C@H]2O[C@@H](n3c(NCc4ccc(Cl)c(Cl)c4)nc4c(N)ncnc43)[C@H](O)[C@@H]2O)cc1 | HD-MB03 | – | – | – | – | pIC50 | 6.17 |
| CC1=C(Cc2cn(Cc3ccccc3)nn2)C(=O)c2ccccc2C1=O | Schistosoma mansoni | – | adult worms | 25 µM, 72 h | – | killing | 58.8% |
| COc1ccc(Nc2cnnc3ccc(-c4cnc(N5CCCN(C)CC5)nc4)cc23)cc1Cl | Schistosoma mansoni | – | adult worms | 10 µM, 5 h | direction not given | phenotypic severity score | 1 |
| CC(C)NCC(O)c1ccc(O)c(O)c1 (stereo not shown) | – | – | ventricular cardiomyocytes, C57BL/6 mouse | dose not given, 0.068 s | – | sarcomere length | 1.72 µm |
| CC1=C(Cn2cc(CN)nn2)C(=O)c2ccccc2C1=O | Schistosoma mansoni | – | adult worms | 10 µM, 24 h | – | killing | 37% |
| COc1ccc(Nc2cnnc3cc(-c4ccc(N5CCN(C)CC5)cc4)ccc23)cc1 | Schistosoma mansoni | – | adult worms | 10 µM, 24 h | direction not given | phenotypic severity score | 0 |
| CCN(c1cc(C#CCN2CCOCC2)cc(C(=O)NCc2c(C)cc(C)[nH]c2=O)c1C)[C@H]1CC[C@H](N(C)CCOC)CC1 | HD-MB03 | – | – | – | reference: DMSO | IC50 | inactive |
| COc1ccc(Nc2cnnc3ccc(-c4cnc(N5CCN(C)CC5)nc4)cc23)cc1 | Schistosoma mansoni | – | adult worms | 10 µM, 1 h | direction not given | phenotypic severity score | 0 |
| N=C(N)NC(=O)Cc1c(Cl)cccc1Cl | Nedd8-cullin1 interaction | neddylation, AlphaScreen | – | 100 µM | – | inhibition | -36.3% |
| CN1CCN(c2ncc(-c3ccc4nncc(Nc5ncccn5)c4c3)cn2)CC1 | Schistosoma mansoni | – | adult worms | 10 µM, 24 h | direction not given | phenotypic severity score | 1 |
| C[C@H]1c2cccc(O)c2C(=O)C2=C(O)[C@]3(O)C(=O)C(C(N)=O)=C(O)[C@@H](N(C)C)[C@@H]3[C@@H](O)[C@@H]21 | Brugia malayi | – | SCID mouse | x42d dosing, 6 weeks post-treatment | – | mice with adult worms | 89% |
| CC(C)(Oc1ccc(CCNC(=O)c2ccc(Cl)cc2)cc1)C(=O)O | Nedd8-cullin1 interaction | neddylation, AlphaScreen | – | 100 µM | – | inhibition | 77.3% |
| COc1ccc(Nc2cnnc3ccc(-c4cnc(N5CCN(C)CC5)nc4)cc23)cc1Cl | Schistosoma mansoni | – | adult worms | 10 µM, 48 h | direction not given | phenotypic severity score | 0 |
